Measured values pooled from the literature.
Numbered parts are unrelated; each lists some results of a single study.

Set 1 — method: universal PBM; molecule type: double-stranded DNA, one strand shown; matrix: in vitro; tested at: 600 nM; reading: higher = stronger binding
Target: Sal-like protein 4, full length isoform A (SALL4, Homo sapiens, UniProt Q9UJQ4, residues 1-1053)
Chain of UniProt Q9UJQ4 (whole entry, looked up): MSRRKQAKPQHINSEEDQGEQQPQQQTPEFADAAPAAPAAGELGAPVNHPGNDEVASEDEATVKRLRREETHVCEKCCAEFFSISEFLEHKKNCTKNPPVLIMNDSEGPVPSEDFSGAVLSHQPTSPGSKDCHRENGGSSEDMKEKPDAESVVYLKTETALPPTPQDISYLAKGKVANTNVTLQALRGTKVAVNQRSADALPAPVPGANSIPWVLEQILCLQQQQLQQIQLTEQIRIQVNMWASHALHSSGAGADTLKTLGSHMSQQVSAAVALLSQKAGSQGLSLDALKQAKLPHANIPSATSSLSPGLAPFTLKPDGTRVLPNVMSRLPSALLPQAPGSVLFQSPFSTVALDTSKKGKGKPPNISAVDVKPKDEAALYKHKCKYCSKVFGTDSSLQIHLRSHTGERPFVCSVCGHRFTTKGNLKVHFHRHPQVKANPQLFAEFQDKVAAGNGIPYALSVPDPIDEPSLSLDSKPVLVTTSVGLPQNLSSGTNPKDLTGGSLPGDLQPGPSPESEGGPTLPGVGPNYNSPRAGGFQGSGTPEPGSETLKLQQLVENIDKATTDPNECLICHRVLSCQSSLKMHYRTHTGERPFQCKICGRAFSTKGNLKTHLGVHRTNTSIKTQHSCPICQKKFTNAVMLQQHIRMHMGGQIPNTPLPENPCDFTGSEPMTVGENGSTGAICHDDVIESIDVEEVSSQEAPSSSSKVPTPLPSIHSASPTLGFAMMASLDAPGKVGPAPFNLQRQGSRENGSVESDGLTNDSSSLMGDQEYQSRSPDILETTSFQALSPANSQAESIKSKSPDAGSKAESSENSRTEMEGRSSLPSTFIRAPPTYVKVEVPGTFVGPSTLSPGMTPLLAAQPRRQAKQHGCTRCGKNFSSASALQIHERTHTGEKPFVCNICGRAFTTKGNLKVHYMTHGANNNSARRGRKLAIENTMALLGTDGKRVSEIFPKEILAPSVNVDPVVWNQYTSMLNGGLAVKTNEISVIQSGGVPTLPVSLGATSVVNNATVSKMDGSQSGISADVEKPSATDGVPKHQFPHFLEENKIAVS
Setting: 8-mer, flanks averaged, mean of replicates
Oligonucleotide	E-score
ACTGTTAT	0.292
AGTAATGG	0.119
AATTCGCG	0.00299
CCATTGGA	-0.113
GAGGCAGC	-0.199
AAAAGCTG	0.0362

Set 2 — method: aptamer microarray, sandwich; molecule type: DNA with 2'F-ANA; matrix: in vitro; tested at: 200 nM; with: Cy3 exosite-II aptamer, 400 nM; reading: higher = stronger binding
Target: Prothrombin, mature alpha-thrombin (F2, Homo sapiens, UniProt P00734)
Setting: whole 15-mer aptamer, many near background
Oligonucleotide	mean fluorescence intensity
GGTTGGTGTGGTTGG (2'F-ANA at 3 4 5 7 8 10 11 13 14 15)	54.7 a.u.
GGTTGGTGTGGTTGG (2'F-ANA at 2 3 5 6 7 10 11 12 13 14 15)	50.9 a.u.
GGTTGGTGTGGTTGG (2'F-ANA at 1 7 14)	56.4 a.u.
GGTTGGTGTGGTTGG (2'F-ANA at 5 9 11 12 13 14)	44.4 a.u.

Set 3 — method: protein binding microarray; molecule type: double-stranded DNA, one strand shown; matrix: in vitro; tested at: not given; relative to: not given; reading: higher = stronger binding
Target: Histone acetyltransferase KAT6A, both winged helices, GST fusion (KAT6A, Homo sapiens, UniProt Q92794, residues 1-181)
Setting: 8-mer, flanks averaged, mean of 2 arrays, mostly near background
Residues (chain): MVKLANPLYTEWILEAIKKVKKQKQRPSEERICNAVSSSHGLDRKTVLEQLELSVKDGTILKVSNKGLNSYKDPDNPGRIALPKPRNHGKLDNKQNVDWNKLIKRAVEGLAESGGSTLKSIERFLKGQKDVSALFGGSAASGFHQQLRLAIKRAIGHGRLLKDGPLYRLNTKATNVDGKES
Oligonucleotide	E-score
CCATCGCA	0.0685
TCAGTGGA	0.0152
AATGTAAG	-0.0589
CGGTGTTA	0.161
ACGCCATA	0.0554
GCCCCACA	-0.232

Other studies, line by line
Molecule	target	test	test system	setting	scale	measurement	result
PhoQ, residues 284 288 289 292 302 303 TNASYF	PhoP, residues 12 14 15 18 19 NFCKL (Escherichia coli, UniProt P23836)	Sort-seq, refers to: YFP reporter	E. coli	PhoQ-PhoP variant library, with: 10 µM Mg2+	relative to: high Mg2+ state, higher = stronger signaling	fold induction	10.8

For quick reference, copied from above (set 1):
Oligonucleotide	E-score
AATTCGCG	0.00299
